Experimental data collected from several papers.
Parts stem from different laboratories: compare values within a part only.
Sequence of UniProt P51813 (whole entry, looked up): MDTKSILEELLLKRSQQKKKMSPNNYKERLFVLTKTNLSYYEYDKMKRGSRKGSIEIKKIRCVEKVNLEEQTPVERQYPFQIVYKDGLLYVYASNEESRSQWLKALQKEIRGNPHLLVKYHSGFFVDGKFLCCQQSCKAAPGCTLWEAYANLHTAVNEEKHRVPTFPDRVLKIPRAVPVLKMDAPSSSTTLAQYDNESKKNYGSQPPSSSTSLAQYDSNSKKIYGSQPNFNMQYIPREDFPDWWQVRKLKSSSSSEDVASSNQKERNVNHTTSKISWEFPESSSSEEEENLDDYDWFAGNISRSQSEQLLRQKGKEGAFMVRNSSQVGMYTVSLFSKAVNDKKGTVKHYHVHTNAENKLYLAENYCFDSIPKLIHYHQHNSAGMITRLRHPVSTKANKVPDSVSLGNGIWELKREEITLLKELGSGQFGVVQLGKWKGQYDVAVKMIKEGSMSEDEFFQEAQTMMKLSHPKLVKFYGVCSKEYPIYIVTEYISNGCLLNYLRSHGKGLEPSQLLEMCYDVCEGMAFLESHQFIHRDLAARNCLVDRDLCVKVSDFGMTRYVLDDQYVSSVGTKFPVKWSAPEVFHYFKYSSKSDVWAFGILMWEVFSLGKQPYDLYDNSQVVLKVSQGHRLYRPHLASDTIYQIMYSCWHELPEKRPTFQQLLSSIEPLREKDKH
Sequence of UniProt P49137 (whole entry, looked up): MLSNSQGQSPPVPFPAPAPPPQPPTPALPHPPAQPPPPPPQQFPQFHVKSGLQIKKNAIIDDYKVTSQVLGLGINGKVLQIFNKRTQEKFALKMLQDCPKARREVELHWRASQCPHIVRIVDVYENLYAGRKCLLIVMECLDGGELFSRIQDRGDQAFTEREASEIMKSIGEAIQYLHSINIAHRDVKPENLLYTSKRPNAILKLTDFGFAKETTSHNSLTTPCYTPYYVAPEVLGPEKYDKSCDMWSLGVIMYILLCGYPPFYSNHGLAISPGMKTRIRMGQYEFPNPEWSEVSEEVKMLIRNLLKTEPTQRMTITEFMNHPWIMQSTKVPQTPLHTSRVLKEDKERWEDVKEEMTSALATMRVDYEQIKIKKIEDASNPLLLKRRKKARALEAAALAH
Sequence of UniProt P0C264 (whole entry, looked up): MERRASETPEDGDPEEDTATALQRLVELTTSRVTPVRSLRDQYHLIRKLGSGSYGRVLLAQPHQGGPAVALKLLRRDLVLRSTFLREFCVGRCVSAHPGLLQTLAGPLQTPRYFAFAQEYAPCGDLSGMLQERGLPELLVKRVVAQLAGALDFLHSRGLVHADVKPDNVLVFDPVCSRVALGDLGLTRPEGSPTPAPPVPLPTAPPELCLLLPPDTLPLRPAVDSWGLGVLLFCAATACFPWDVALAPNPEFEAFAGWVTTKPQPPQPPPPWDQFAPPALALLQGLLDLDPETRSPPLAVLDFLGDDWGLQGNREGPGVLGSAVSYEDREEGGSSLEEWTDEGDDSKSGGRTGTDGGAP
Sequence of UniProt Q9C098 (whole entry, looked up): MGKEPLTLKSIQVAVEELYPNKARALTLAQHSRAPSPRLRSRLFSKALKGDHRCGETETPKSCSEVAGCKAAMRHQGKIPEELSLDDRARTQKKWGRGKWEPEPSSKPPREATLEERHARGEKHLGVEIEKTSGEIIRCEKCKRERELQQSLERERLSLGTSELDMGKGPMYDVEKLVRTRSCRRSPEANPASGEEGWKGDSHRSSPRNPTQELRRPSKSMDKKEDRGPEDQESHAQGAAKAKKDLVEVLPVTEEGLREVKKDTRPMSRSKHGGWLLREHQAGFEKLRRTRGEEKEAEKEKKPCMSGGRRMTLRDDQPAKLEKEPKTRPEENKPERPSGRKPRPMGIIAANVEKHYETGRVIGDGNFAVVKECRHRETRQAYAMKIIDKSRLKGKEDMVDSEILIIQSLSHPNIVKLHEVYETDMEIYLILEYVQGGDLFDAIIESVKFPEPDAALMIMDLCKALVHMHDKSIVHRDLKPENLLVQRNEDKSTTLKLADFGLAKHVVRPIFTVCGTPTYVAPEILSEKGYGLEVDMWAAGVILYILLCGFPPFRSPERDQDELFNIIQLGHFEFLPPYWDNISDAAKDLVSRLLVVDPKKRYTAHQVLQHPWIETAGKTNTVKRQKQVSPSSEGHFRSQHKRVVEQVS
Sequence of UniProt Q9HC98 (whole entry, looked up): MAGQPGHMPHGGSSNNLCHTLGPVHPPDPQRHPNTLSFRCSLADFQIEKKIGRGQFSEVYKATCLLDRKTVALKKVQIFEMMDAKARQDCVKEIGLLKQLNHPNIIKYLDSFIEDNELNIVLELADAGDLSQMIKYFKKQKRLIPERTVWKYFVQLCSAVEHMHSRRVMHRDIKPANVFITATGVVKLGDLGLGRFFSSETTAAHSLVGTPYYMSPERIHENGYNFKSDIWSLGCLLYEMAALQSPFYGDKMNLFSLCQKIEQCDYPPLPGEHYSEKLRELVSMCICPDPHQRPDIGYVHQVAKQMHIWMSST
Sequence of UniProt Q99558 (whole entry, looked up): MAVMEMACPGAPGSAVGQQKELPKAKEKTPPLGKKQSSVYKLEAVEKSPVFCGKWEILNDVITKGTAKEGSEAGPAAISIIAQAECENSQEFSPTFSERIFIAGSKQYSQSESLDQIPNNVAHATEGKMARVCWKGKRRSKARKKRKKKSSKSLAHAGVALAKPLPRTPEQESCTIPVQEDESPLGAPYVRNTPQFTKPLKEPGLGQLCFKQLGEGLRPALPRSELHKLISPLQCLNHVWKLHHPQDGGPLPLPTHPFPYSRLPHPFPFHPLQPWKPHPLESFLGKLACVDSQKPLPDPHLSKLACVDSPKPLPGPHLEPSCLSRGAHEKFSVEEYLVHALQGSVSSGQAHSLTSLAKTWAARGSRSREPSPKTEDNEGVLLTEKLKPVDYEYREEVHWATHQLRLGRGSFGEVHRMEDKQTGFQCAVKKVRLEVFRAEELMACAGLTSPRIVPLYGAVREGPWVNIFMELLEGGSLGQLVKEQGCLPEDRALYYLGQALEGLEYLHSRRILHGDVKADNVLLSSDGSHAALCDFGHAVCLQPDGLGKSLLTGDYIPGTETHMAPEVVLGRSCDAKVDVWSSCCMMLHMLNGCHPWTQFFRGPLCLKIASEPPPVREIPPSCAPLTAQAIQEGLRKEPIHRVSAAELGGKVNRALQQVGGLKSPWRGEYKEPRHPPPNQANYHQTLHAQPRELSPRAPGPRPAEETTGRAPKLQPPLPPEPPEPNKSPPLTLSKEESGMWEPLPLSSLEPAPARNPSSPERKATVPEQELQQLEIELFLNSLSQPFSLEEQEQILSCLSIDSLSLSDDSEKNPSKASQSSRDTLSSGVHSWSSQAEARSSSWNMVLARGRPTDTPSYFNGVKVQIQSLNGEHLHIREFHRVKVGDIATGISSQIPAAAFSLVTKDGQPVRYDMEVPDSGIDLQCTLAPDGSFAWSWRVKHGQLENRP

Block 1
Structure (SMILES): C[C@H](c1ccc(F)cc1)N(Cc1cccc(C(=O)O)c1)C(=O)c1cnc2ccccc2c1
Effect on: cell-free assay
Method: competition with immobilised ligand
Tested at: 1 µM
target	remaining binding
Calcium/calmodulin-dependent protein kinase type II subunit alpha (CAMK2A, Homo sapiens, UniProt Q9UQM7)	97%
Dual specificity tyrosine-phosphorylation-regulated kinase 1A (DYRK1A, Homo sapiens, UniProt Q13627)	100%
Serine/threonine-protein kinase Nek10 (NEK10, Homo sapiens, UniProt Q6ZWH5)	96%
Epithelial discoidin domain-containing receptor 1 (DDR1, Homo sapiens, UniProt Q08345)	100%
Cytoplasmic tyrosine-protein kinase BMX (BMX, Homo sapiens, UniProt P51813)	99%
Dual specificity protein kinase CLK1 (CLK1, Homo sapiens, UniProt P49759)	91%
Ribosomal protein S6 kinase alpha-2, C-terminal kinase domain (RPS6KA2, Homo sapiens, UniProt Q15349)	100%
Citron Rho-interacting kinase (CIT, Homo sapiens, UniProt O14578)	100%
Receptor-interacting serine/threonine-protein kinase 1 (RIPK1, Homo sapiens, UniProt Q13546)	100%
Mitogen-activated protein kinase kinase kinase 14 (MAP3K14, Homo sapiens, UniProt Q99558)	100%
Serine/threonine-protein kinase DCLK3 (DCLK3, Homo sapiens, UniProt Q9C098)	100%
Uncharacterized serine/threonine-protein kinase SBK3 (SBK3, Homo sapiens, UniProt P0C264)	100%
Mast/stem cell growth factor receptor Kit (KIT, Homo sapiens, UniProt P10721, L576P)	94%
Tyrosine-protein kinase ABL1, non-phosphorylated (ABL1, Homo sapiens, UniProt P00519)	76%
Phosphatidylinositol 4-phosphate 3-kinase C2 domain-containing subunit beta (PIK3C2B, Homo sapiens, UniProt O00750)	90%
Ribosomal protein S6 kinase alpha-4, C-terminal kinase domain (RPS6KA4, Homo sapiens, UniProt O75676)	100%
Hepatocyte growth factor receptor (MET, Homo sapiens, UniProt P08581)	100%

Block 2
Target: Eukaryotic initiation factor 4A-I (EIF4A1, Homo sapiens, UniProt P60842, residues 1-406, full length assumed)
Sequence of UniProt P60842 (whole entry, looked up): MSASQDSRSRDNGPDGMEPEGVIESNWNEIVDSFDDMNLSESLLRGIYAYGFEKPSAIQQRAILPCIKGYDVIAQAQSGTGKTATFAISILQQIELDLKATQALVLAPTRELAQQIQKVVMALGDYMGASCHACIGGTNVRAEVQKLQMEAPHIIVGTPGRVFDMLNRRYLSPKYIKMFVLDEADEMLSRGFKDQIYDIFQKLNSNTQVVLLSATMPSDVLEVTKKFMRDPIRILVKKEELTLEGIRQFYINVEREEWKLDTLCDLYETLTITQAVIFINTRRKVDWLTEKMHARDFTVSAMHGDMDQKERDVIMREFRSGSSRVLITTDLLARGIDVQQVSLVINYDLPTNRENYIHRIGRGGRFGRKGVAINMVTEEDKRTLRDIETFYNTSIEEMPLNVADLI
Method: RNA Bind-n-Seq
Form: RNA
Medium: in vitro
Tested at: 15 pmol
Setting: 4-mer, random 30-nt RNA, single round
Together with: 3 µM DMDA-PatA, 2 mM AMP-PNP
Reference: input library
Direction: higher = stronger binding
Sequence	4-mer enrichment [fold]
ACAG	0.729
AGGU	1.36
CAAG	0.67
GGAG	1.17
ACUC	0.578
UUAU	1.13
GACC	0.432
GGAU	1.24

Block 3
SMILES: c1ccc(-c2n[nH]c3c2oc2ccccc23)cc1
Effect on: enzyme activity
Mode: inhibitor
Tested at: 0.5 µM
Reference: control
target	remaining activity [%]
Serine/threonine-protein kinase Nek6 (NEK6, Homo sapiens, UniProt Q9HC98)	99
Tyrosine-protein kinase Lck (LCK, Homo sapiens, UniProt P06239)	99.3
Casein kinase I isoform gamma-3 (CSNK1G3, Homo sapiens, UniProt Q9Y6M4)	88.5
Tyrosine-protein kinase JAK3 (JAK3, Homo sapiens, UniProt P52333)	132
Dual specificity mitogen-activated protein kinase kinase 2 (MAP2K2, Homo sapiens, UniProt P36507)	85.8
Fibroblast growth factor receptor 1 (FGFR1, Homo sapiens, UniProt P11362)	85.9
Tyrosine-protein kinase FRK (FRK, Homo sapiens, UniProt P42685)	89.9
Casein kinase I isoform gamma-2 (CSNK1G2, Homo sapiens, UniProt P78368)	86.4
Serine/threonine-protein kinase TBK1 (TBK1, Homo sapiens, UniProt Q9UHD2)	105
MAP kinase-activated protein kinase 2 (MAPKAPK2, Homo sapiens, UniProt P49137)	99.1
Mitogen-activated protein kinase kinase kinase 5 (MAP3K5, Homo sapiens, UniProt Q99683)	97.4
Fibroblast growth factor receptor 3 (FGFR3, Homo sapiens, UniProt P22607)	97.5
Serine/threonine-protein kinase ULK2 (ULK2, Homo sapiens, UniProt Q8IYT8)	96.4

Block 4
Target: Sal-like protein 4, full length isoform A (SALL4, Homo sapiens, UniProt Q9UJQ4, residues 1-1053)
Sequence of UniProt Q9UJQ4 (whole entry, looked up): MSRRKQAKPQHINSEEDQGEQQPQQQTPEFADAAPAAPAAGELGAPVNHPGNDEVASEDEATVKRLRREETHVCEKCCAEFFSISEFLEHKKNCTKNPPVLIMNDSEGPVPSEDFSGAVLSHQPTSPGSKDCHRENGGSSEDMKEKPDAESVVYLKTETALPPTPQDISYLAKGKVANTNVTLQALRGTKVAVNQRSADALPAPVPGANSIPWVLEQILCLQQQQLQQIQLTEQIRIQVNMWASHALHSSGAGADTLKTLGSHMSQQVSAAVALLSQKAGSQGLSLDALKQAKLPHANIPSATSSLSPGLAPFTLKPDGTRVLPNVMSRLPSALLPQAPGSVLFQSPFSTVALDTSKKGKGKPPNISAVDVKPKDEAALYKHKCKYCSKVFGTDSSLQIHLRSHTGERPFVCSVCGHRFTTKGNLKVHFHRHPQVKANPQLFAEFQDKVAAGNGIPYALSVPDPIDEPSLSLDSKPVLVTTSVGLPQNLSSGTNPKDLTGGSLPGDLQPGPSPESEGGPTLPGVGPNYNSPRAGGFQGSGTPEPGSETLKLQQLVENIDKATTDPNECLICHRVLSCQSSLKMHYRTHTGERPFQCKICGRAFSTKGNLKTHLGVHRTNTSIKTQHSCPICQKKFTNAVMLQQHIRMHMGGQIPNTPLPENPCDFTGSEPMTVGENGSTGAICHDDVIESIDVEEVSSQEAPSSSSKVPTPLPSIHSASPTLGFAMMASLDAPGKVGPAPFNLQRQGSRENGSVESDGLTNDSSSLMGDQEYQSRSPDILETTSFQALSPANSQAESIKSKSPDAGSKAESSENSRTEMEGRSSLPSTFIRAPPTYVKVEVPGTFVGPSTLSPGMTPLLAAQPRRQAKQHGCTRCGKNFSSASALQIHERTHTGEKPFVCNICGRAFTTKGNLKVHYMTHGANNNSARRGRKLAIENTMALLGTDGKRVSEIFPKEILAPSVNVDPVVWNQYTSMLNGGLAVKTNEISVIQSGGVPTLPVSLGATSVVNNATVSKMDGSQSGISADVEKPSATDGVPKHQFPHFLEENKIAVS
Method: universal PBM
Form: double-stranded DNA, one strand shown
Medium: in vitro
Tested at: 600 nM
Setting: 8-mer, flanks averaged, mean of replicates
Direction: higher = stronger binding
Sequence	E-score
CTACATAC	0.3
ATGGGAAG	-0.0348
ACTTATAC	0.293
AGGAGGTC	-0.244
CCTCTCCG	-0.357
CCAGTGCA	-0.186
AGCGGTGA	-0.171
CGTGCTCA	-0.139
